Published values from different studies.
A part holds a random share of what one study measured.

Series 1 — method: RNAcompete; molecule type: RNA; medium: in vitro; concentration: 20 nM; notes: 7-mer, probes averaged, single round; baseline: mean of 7-mers; reading: higher = stronger binding
Target: PABPC1L2, full length, GST fusion (mouse, UniProt A0ABA7IW68)
Residues (chain): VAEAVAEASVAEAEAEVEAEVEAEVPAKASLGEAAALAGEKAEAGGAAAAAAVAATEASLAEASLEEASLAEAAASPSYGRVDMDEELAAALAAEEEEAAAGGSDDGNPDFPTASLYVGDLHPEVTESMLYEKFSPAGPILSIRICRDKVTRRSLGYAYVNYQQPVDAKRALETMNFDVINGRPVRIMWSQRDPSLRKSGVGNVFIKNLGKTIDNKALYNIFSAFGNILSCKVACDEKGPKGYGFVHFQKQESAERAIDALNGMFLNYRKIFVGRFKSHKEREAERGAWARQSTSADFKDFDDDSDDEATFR
For `CUGUUCU`, the 7-mer Z-score was -0.351.
With `GCCCUGG` the 7-mer Z-score was -0.287.
For `UCUGCUU`, the 7-mer Z-score was -0.34.
`GACUGCC` has a 7-mer Z-score of -0.193.
The 7-mer Z-score of `CGUUGGU` is reported as -0.182.
`CGAGAGG` has a 7-mer Z-score of -0.0246.
For `CGAGUUC`, the 7-mer Z-score was -0.311.
With `UUACUUU` the 7-mer Z-score was -0.24.
The 7-mer Z-score of `UGCGGAG` is reported as 0.109.
The 7-mer Z-score of `UAUUUCG` is reported as -0.267.
`ACGCGUC` has a 7-mer Z-score of -0.157.
With `UUUUUUG` the 7-mer Z-score was -0.11.
The 7-mer Z-score of `AGCUCCA` is reported as -0.313.
`UAGAGUU` has a 7-mer Z-score of -0.188.
For `CGAAGGA`, the 7-mer Z-score was 0.148.
`UUAUUGU` has a 7-mer Z-score of -0.231.
`ACCAAGG` has a 7-mer Z-score of 0.133.
`UCGGCAG` has a 7-mer Z-score of 0.142.
`CGUGGUG` gave a 7-mer Z-score of -0.0971.

Series 2 — method: RNA Bind-n-Seq; molecule type: RNA; medium: in vitro; concentration: 365 nM; baseline: no-protein control; reading: higher = stronger binding
Target: RNA binding protein fox-1 homolog 2, RRM domain, GST-SBP tag (RBFOX2, Homo sapiens, UniProt O43251-10, residues 100-194)
Notes: natural RNA segment, single round, ends assumed
Residues (chain): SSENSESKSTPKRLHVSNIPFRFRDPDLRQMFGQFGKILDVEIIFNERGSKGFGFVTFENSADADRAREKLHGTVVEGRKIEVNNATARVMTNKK
`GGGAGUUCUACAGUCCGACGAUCCCUAUAUGGUCCUCGUGUUGGCUUAUCCCAGGAGCCUACUUCCCAGAGUCCUGCCUAGGGCACCCGGGGAAGCCCGUCCCCACUUCCCCACUCUGUAAGUGUUUUGGAGUUGGAAUUCUCGGGUGCCAA` — result for “RBNS enrichment (R)”: 0.502.
`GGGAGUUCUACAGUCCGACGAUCCUCUGAGCCAAAGCUCUGGGGCCUUGCAUUCCCUGCAUUGGGUUGAUGACUGUCAGCAUCACUGCCGCAGGCCAUGCUUGACUAAGGUACCUGGUUUUAGCCACAGCCACUGGAAUUCUCGGGUGCCAA` — result for “RBNS enrichment (R)”: 0.471.
`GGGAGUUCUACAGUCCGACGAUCCGUUUUUUUGUUCUGUUUCGUUUUUCAAAAUAAUGCUUUUUGCAAAAGAGGUAAGACUGAGACUAAAGGUGUUAUCUUCUGGUGUGCUCCUGGAAGUGUCUACCCUACAUUGGAAUUCUCGGGUGCCAA` — result for “RBNS enrichment (R)”: 0.446.
Under “RBNS enrichment (R)”, `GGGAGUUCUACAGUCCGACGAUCUGCAUUCCAAGGAAAUGGCAUAUGGAUUAACUGUAAGAAAUGAAAUAAGUAAUUUAUUGUAAGACAACAUCAAGCCAUGGAAACUUGGCAGAAGAUUCAAAGCAGCUUAAUGGAAUUCUCGGGUGCCAA` is recorded as 0.508.
For `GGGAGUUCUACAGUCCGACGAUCAUUCUUAGGUCUAACUCGAUUUUUGUGCUCAGGGAAGAUGCACUGAUGUCUUCAAAAAAAAAUCAACAUGCAGAAUGGAAUUUGCAAUAAAGGCUUUUCUAAAACUGGCUUGGAAUUCUCGGGUGCCAA`, “RBNS enrichment (R)” read 0.674.
For `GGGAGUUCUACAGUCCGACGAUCACAGAGAGGAUGGGGCUCCCCGAGUAGUGGGAGUUCUUUUGUGGCCUGUGCUGGGGGUAGGGAGCCAACAGCACCCGUUUGUACAUAAAGGUCAUUCGUAUGUCACAUGUUGGAAUUCUCGGGUGCCAA`, “RBNS enrichment (R)” read 0.605.
`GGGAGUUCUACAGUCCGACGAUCUCCUAUCCAACCGUACUAACGUGGACACCCUACACCUCCCCUCAGAACUUCAAAAGGGCAAGAUCUUUUUUCCUUCACUUAUUGCUGAAACCAAGAGCACAAUUCCCAUUUGGAAUUCUCGGGUGCCAA` — result for “RBNS enrichment (R)”: 0.43.
For `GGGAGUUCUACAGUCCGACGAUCCACCACAACCACCUGUCCACCCCUUCCUUCCCCACCACUGUCGCUCACCCUGACAUAUGCCCACAUCCAUGCUGGGGCCUGGGUUCAGCCUGGCCUGCCCAGCCCUGGUCUGGAAUUCUCGGGUGCCAA`, “RBNS enrichment (R)” read 0.961.
Under “RBNS enrichment (R)”, `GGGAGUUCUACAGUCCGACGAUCCCAUAGGUCUGAAUCUCUUAAGAAUUCUCAGUCUCUCUGGGAUGUAGGGCGCAUUAUAAAUGCAUUAAUCCUUAUAGUCAAUCCUGUGCCUAGGAUUUUGCAAGGGAACAUGGAAUUCUCGGGUGCCAA` is recorded as 0.306.
`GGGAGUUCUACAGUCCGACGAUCAAACCCUUUCCCCUCUCAAGCCAGGAGUCUCAUCUGCUACAUUUUUUUUAACCACCUCUGAUUUCCAACUUAGUGAUGUGGUAAUGAAAUUCGUUUGUCUUCAAUAUAGUUGGAAUUCUCGGGUGCCAA` — result for “RBNS enrichment (R)”: 1.48.
`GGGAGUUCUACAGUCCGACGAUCCUUCACAGAAUGAUGGCAUCUUCCUAAACCCUUCUGGGAGAUGUCUGAGAAGUUGUGAAGGGUCCAGAGCCAGUCUGCUUUAGAGUCCAAUAAAGUGUAGGUGUGGCAAUUGGAAUUCUCGGGUGCCAA`: “RBNS enrichment (R)” 0.358.
`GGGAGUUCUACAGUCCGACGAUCCUCUUACUUCACUGUGGAGGGACUUCGAGCAUCAGGUGGCUCUCUCAUGUUCCUGCCCCCUUUACUCCAUGCCAAACCUGGGAUUAGACAGCCUGCUGGCUCCAGAAAAAUGGAAUUCUCGGGUGCCAA` — result for “RBNS enrichment (R)”: 0.278.

Series 3 — method: aptamer microarray, sandwich; molecule type: DNA with 2'F-ANA; medium: in vitro; concentration: 200 nM; together with: Cy3 exosite-II aptamer, 400 nM; reading: higher = stronger binding; sequence: GGTTGGTGTGGTTGG
Target: Prothrombin, mature alpha-thrombin (F2, Homo sapiens, UniProt P00734)
Notes: whole 15-mer aptamer, many near background
`2'F-ANA at 5 7 8 9 15` — result for “mean fluorescence intensity”: 77.4 a.u.
For `2'F-ANA at 1 3 4 5 6 9 10 12 15`, “mean fluorescence intensity” read 53.4 a.u.
Under “mean fluorescence intensity”, `2'F-ANA at 1 2 3 5 6 10 11 12 13 14 15` is recorded as 199 a.u.
`2'F-ANA at 3 5 9 10 11 14 15`: “mean fluorescence intensity” 52.1 a.u.
`2'F-ANA at 1 2 4 5 7 9 10 11 12 14`: “mean fluorescence intensity” 47.7 a.u.
Under “mean fluorescence intensity”, `2'F-ANA at 1 3 5 8 11 12 13 14 15` is recorded as 64.7 a.u.
For `2'F-ANA at 1 2 3 6 9 11 14`, “mean fluorescence intensity” read 60.8 a.u.
`2'F-ANA at 1 2 5 8 9 10 11 12`: “mean fluorescence intensity” 49.1 a.u.
`2'F-ANA at 1 5 6 11 13` — result for “mean fluorescence intensity”: 64.5 a.u.
`2'F-ANA at 1 4 7 8 11 12 14` — result for “mean fluorescence intensity”: 65.2 a.u.
For `2'F-ANA at 1 2 3 4 5 6 7 8 9 11 13 14`, “mean fluorescence intensity” read 56 a.u.
For `2'F-ANA at 2 3 4 5 7 8 11 13 14`, “mean fluorescence intensity” read 64.7 a.u.
`2'F-ANA at 3 4 5 7 8 14 15`: “mean fluorescence intensity” 52.8 a.u.
For `2'F-ANA at 1 2 6 11 13 14`, “mean fluorescence intensity” read 94.1 a.u.
`2'F-ANA at 2 3 5 10 12 14 15` — result for “mean fluorescence intensity”: 49.7 a.u.
`2'F-ANA at 1 4 5 14 15` — result for “mean fluorescence intensity”: 43.1 a.u.
For `2'F-ANA at 1 3 4 6 7 8 9 12`, “mean fluorescence intensity” read 401 a.u.
`2'F-ANA at 1 2 4 8 9 11 12 13 14` — result for “mean fluorescence intensity”: 64.3 a.u.
For `2'F-ANA at 2 3 4 6 8 10 11 12 14 15`, “mean fluorescence intensity” read 147 a.u.
Under “mean fluorescence intensity”, `2'F-ANA at 1 4 5 6 9 10 12 15` is recorded as 47.2 a.u.
`2'F-ANA at 2 3 4 5 6 12 13 15` — result for “mean fluorescence intensity”: 119 a.u.
`2'F-ANA at 2 4 6 7 9 10 11 12 14`: “mean fluorescence intensity” 72.5 a.u.
For `2'F-ANA at 3 10 11`, “mean fluorescence intensity” read 646 a.u.
For `2'F-ANA at 1 2 3 4 5 7 9 10 11 12 15`, “mean fluorescence intensity” read 50 a.u.
`2'F-ANA at 2 6 7 9 11`: “mean fluorescence intensity” 300 a.u.

Series 4 — method: protein binding microarray; molecule type: double-stranded DNA, one strand shown; medium: in vitro; concentration: not given; baseline: not given; reading: higher = stronger binding
Target: Histone acetyltransferase KAT6A, winged helix 2, GST fusion (KAT6A, Homo sapiens, UniProt Q92794, residues 85-181)
Notes: 8-mer, flanks averaged, mean of 2 arrays, mostly near background
Target sequence (chain): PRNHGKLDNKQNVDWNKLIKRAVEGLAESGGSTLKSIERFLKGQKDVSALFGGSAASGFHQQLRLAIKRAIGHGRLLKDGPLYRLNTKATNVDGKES
The E-score of `CTGGACCA` is reported as -0.0544.
`GATGTAAA` gave an E-score of 0.00381.
With `CTCTCCTC` the E-score was -0.138.
For `CGCGAAAC`, the E-score was -0.0685.
For `ACATGTCT`, the E-score was -0.0924.
The E-score of `GACCGCCC` is reported as 0.124.
`ATAGAACG` has an E-score of 0.044.
For `CGTGATAC`, the E-score was -0.0455.
For `TACTGGAA`, the E-score was 0.0324.
`ACAGTCCG` gave an E-score of -0.117.
`ATCGCTCG` gave an E-score of 0.0562.
`GACTATAA` gave an E-score of -0.137.
For `ATAGCTTA`, the E-score was 0.0034.
With `TAACATAA` the E-score was -0.0167.
The E-score of `AAACATGG` is reported as -0.0656.
With `CCCCTAAC` the E-score was -0.0469.
For `CACGGCAA`, the E-score was -0.045.
The E-score of `AGACGGAG` is reported as 0.0781.
The E-score of `ATGTTGTG` is reported as 0.0648.
`AGTTGACA` gave an E-score of 0.0248.
`TCCGATCA` has an E-score of 0.0901.
For `AGCTGCGC`, the E-score was 0.23.
For `CGCCGGGC`, the E-score was 0.239.
For `CGGTGGAA`, the E-score was 0.0376.
`CAACAAGA` gave an E-score of -0.0329.

For quick reference, copied from above (series 4):
`GATGTAAA` gave an E-score of 0.00381.
With `CTCTCCTC` the E-score was -0.138.
For `CGCGAAAC`, the E-score was -0.0685.
For `ACATGTCT`, the E-score was -0.0924.
The E-score of `GACCGCCC` is reported as 0.124.
`ATAGAACG` has an E-score of 0.044.
For `CGTGATAC`, the E-score was -0.0455.
